Results from different studies.
Every numbered part comes from another study and shows a few of its results, in no order.

Study 1 — organism: Saccharomyces cerevisiae; effect on: cell growth; method: competitive growth deep sequencing; form: peptide; setting: peptide tiling library; added: cyclin F-Cln2 fusion; reading: direction not given
Sequence	enrichment score
IPMIAKNLMCELDE	1.11
NRLLKLFTRCLTPLVP	0.631
NARRSLNFGGSTGT	3.42
ELGMEHCEKFEISETS	0.549
TQERKQIHCLSEDELS	0.488
AIRKMREDRWAVIAKM	-0.82
LFVPQRKLEVSTEDVH	0.398
VEEEFFALRKRTPSAG	0.509
TLPYDLACTGGDFVLF	0.862
DSDSDSEGGAAGGEAD	2.7
RNRGPKLNAMLRLGVL	-0.258

Study 2 — method: protein binding microarray; form: double-stranded DNA, one strand shown; medium: in vitro; tested at: not given; relative to: not given; reading: higher = stronger binding
Target: Histone acetyltransferase KAT6A, both winged helices, GST fusion (KAT6A, Homo sapiens, UniProt Q92794, residues 1-181)
Setting: 8-mer, flanks averaged, mean of 2 arrays, mostly near background
Residues (chain): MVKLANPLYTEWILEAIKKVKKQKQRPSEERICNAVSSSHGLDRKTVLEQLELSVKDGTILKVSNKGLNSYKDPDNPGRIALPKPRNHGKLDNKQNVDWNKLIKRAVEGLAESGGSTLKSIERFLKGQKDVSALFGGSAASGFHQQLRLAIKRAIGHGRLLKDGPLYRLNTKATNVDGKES
Oligonucleotide	E-score
AATGTTGC	0.00156
GGCCCGCC	0.193
CCTCGCAA	-0.0157
GAAGGCAA	-0.117
TGGGTAAA	-0.144
TACAAGAA	-0.0649
CCTTTTAC	-0.0858
CTAAAAGA	-0.176
AAAACCCG	0.264
GTTGTTCA	-0.0415
ACATGCAA	-0.131
CGTGCCTA	0.00721
CCTTCGGC	-0.0375
GAGATTGC	0.0971
TCTGATCA	-0.123

Study 3 — method: RNA Bind-n-Seq; form: RNA; medium: in vitro; tested at: 365 nM; relative to: no-protein control; reading: higher = stronger binding
Target: RNA binding protein fox-1 homolog 2, RRM domain, GST-SBP tag (RBFOX2, Homo sapiens, UniProt O43251-10, residues 100-194)
Setting: natural RNA segment, single round, ends assumed
Constant ends, left off below: GGGAGUUCUACAGUCCGACGAUC … UGGAAUUCUCGGGUGCCAA
Construct (chain): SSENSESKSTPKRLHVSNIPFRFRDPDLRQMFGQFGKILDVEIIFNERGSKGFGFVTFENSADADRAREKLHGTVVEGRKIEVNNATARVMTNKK
Oligonucleotide	RBNS enrichment (R)
UUUAGGAAUAUGUUCAAUGCAAAGUAAAAAAAUAUGAAUUGUCCCCAAUCCCGGUCAUGCUUUUGCCACUUUGGCUUCUCCUGUGACCCCACCUUGACGGUGGGGCGUAG	0.896
UCUUCAAUAAAGAGAUUUAAUAGCCAUUUCAAGAAAUCCCAUAAAGAACCUCUCUAUGUCCCUUUUUUUAAUUUAAAAAAAAUGACUCUUGUCUAAUAUUCGUCUAUAAG	1.05
GAUCUGUGCCAUAAUAGAUAUGCAUUGCAAUUGUAUGCCAUGUCUCCAUUUUAAAUUUGAGUUUCCCUUUCGUUUUUACUCACCACCAAAGAAUCUCAAAUGUAAAAUUU	0.668
AAGCGUGGACGUGUGUCCCCAUGGCUUGUGGAUCAGCUAAGCUCGGGAUCAUUUCCAUAAGUCUGCUUUUCAGGGAUUCUCUGCUGGUGCUGGUGCAAGGACUUCUGUUC	0.359
CCGGCAAAUUAUGUGGAGGCGAUCCAGUGAUGAGUCGGGGACAGGCCAGCGGGGGGACGGAGGCGGCGGGCCCAGGAGCCUCAGCCAGCCACGUGGGCAUCCACUCCUUU	0.474
ACCUGUCCUGGAGACCGAAGUGCCAUCACACCGGGCGGCCUGCGGCUUGGGGCCCCAGCCUUAACUUCUCGACAGUUCCGUGAGGAUGACUUCCGGAGAGUUGUGGACUU	0.245
AGACAUAAUUGUUAUCUCCUUUUGGCUUAUGUGAUUUUCUGUUUACAAGUAGAAUAGCCAAUUAUUUAAAUGUUUAGUUGCCACAGUGAACCAGGAGUCACUGAGCCAAU	0.638
UCUGGCGCCUUCCUCGCCCCGGGCUGAGAGCUGGGUCCCGGGAGAUGGAAGCCUCCCAGGCGCGCGAGGCUUCCCGGGCGCUCUGAGGCUUCUUUCUCCUCGCCCGCUCC	0.232
CUGGCCUAGGUAUAUGGAUCUCACGCCUCUUGGGGAGACAGAUUGCAAAAAUGGGUUCCCUGCAUGUCUCCGGCUUCUUCCCAUGUUCUCAUUGUUUUUCUCUAGCUACC	6.6
CCCUCCGUGAUUGAGGGCUCAUAUAGCCGCUGAGGGCAGCCUGCAGCCAGGUGGCCUCACCUGCUGCCCAGAAUUAGGCUGUGCCUUUUCCCAGUCCUUCCCCAUGCCAG	0.754
UGCAGUGCUGGAUGACGGGCAGUGUGCAAGGCAUCCCAGCAUUCAUGGUCCCUUGUUAGUGUUGUGCCAAAGGCCUUGGGUCAGUUCUCUCAGCUUCCAUAUGGAAGUGA	0.311
GGGGAGGGAACAUACCACCCAGCCAGGCUUAGCAUUGGGUUUUAUCCUUUAAUAAAAGUUUUAUAAUGAAUCCUGUUCACCUUAAAGUGUGAUUAUGGAGAUGAUUGGCU	0.468

Other studies, line by line
Molecule	target	assay	test system	conditions	how to read	measurement	result
PhoQ, residues 284 288 289 292 302 303 AANNSF	PhoP, residues 12 14 15 18 19 SYFRT (Escherichia coli, UniProt P23836)	Sort-seq, refers to: YFP reporter	E. coli	PhoQ-PhoP variant library, added: 10 µM Mg2+	relative to: high Mg2+ state, higher = stronger signaling	fold induction	0.609

Repeated from above (study 1):
Sequence	enrichment score
NRLLKLFTRCLTPLVP	0.631
LFVPQRKLEVSTEDVH	0.398
AIRKMREDRWAVIAKM	-0.82
